{"data": "Measurements collected from several papers", "note": "Several values in a cell are separate wells, animals, samples, runs or records. ± marks the error that the study gave.", "chain of UniProt Q4U2R8 (whole entry, looked up)": "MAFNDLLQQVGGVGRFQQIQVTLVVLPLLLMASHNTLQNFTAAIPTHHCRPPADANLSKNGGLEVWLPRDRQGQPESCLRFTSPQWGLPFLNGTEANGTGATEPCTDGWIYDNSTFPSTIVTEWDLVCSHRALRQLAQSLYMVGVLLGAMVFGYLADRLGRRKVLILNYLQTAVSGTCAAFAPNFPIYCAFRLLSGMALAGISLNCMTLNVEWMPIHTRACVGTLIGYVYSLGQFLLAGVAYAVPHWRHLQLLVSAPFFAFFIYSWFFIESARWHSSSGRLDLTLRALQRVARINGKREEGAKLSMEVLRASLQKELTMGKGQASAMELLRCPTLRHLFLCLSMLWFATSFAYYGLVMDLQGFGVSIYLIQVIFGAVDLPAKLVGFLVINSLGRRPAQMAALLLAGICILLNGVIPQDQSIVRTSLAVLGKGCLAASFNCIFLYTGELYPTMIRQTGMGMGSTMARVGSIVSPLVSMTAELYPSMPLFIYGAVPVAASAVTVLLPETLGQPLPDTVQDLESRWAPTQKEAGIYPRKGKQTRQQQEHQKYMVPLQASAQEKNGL"}
{"SMILES": "CCCCCC1=C(NCC)C(=O)C(C/C=C(\\C)CCC=C(C)C)=C(O)C1=O", "target or system": "human peripheral lymphocytes", "setting": "10 µg/mL, 3 h, with S9, harvest 27 h", "quantity": "cytostasis", "result": "12%"}
{"SMILES": "CN(C)CCCNC(=O)[C@@H]1NC(=O)[C@@H]2Cc3ccc(cc3)Oc3cc4cc(c3O)-c3ccc5c(c[nH]c5c3)C[C@@H](NC(=O)C(NC(=O)CCCCCN)c3ccc(O)cc3)C(=O)N[C@H](c3ccc(O)cc3)C(=O)N[C@H]4C(=O)N[C@@H](C(=O)N2C)c2ccc(cc2)Oc2cc1ccc2O (stereo partly shown)", "target or system": "human red blood cells", "setting": "128 µg/mL, 1 h, 37 °C, 1% DMSO", "quantity": "hemolysis", "result": "1.42%"}
{"SMILES": "Cc1ccn2c(-c3csc(Nc4ccccn4)n3)c(C)nc2c1", "target or system": "HEp-2", "test": "cell growth or viability, ATP luminescence", "setting": "72 h", "quantity": "IC50", "result": "> 10 µM"}
{"SMILES": "CCn1ccc(-c2cc([C@@H](C)NC(=O)c3cc(N4CCN(C)CC4)ccc3C)c3ccccc3n2)n1", "target or system": "Vero E6", "setting": "3.906 µM", "quantity": "viability", "result": "94.5% and 97.5% and 98.2%"}
{"SMILES": "CC1(F)CN(C(=O)Cn2c(=O)c(C(=O)NCc3ccc(Cl)cc3)cc3nc(N4CCN(CCN)C4=O)cnc32)C1", "target or system": "Epstein-Barr virus", "test": "qPCR", "setting": "retest 2", "scale": "reference: CC50 over EC50", "quantity": "selectivity index", "result": 77.2}
{"SMILES": "Cc1ccc(OC[C@@H]2CCN2C)cc1C(=O)N[C@H](C)c1cc(-c2cnn(C)c2)nc2ccccc12", "target or system": "Vero E6", "setting": "250 µM", "quantity": "viability", "result": "1.27%"}
{"SMILES": "COc1ccc2c3c1O[C@H]1[C@H](O)C=C[C@H]4[C@@H](C2)N(C)CC[C@@]341", "test system": "octanol/buffer", "setting": "1 h, pH 7.4", "quantity": "logD", "result": 0.42}
{"SMILES": "Nc1c2c(nc3sc4c(c13)CCCCC4)CCCC2", "target or system": "Ba/F3", "test": "cytotoxicity", "setting": "3 days", "quantity": "IC50", "result": "> 1.25 µM"}
{"SMILES": "CCn1ccc(-c2cc(-c3cnn(C)c3)cc([C@@H](C)NC(=O)c3cc(OCCN(C)C)ccc3C)c2)n1", "target or system": "African green monkey cells", "setting": "7.812 µM", "quantity": "viability", "result": "97.7%"}
{"SMILES": "O=C1NC2(CC2)COc2ncc(F)cc2[C@H]2COCCN2c2ccn3ncc1c3n2", "target or system": "Salmonella typhimurium", "test": "Ames test", "test system": "TA1535", "setting": "5000 µg/plate, 48 h, together with: without S9", "quantity": "revertant colonies", "result": "6 ± 1 revertants/plate"}
{"SMILES": "Cc1ccc(NC2(C)CN(C)C2)cc1C(=O)N[C@H](C)c1cc(-c2cnn(C)c2)nc2ccccc12", "target or system": "Vero E6", "setting": "15.62 µM", "quantity": "viability", "result": "83.6% and 79.6% and 91.3%"}
{"SMILES": "O=C1CC[C@H]2[C@H]3Cc4ccc(O)c5c4[C@@]2(CCN3CCc2ccccc2)[C@H]1O5", "test system": "octanol/phosphate buffer", "setting": "1 h, pH 7.38, ionic strength 0.15 M", "quantity": "logD", "result": 1.67}
{"SMILES": "Cc1ccc(OCC2CN(C)C2)cc1C(=O)N[C@H](C)c1cc(-c2cnn(C)c2)nc2ccccc12", "target or system": "Vero E6", "setting": "250 µM", "quantity": "viability", "result": "0.536% and 1.43% and 0.357%"}
{"SMILES": "Oc1ccc2c3c1O[C@H]1[C@@H](O)CC[C@H]4[C@@H](C2)N(CC2CCC2)CC[C@@]341", "test": "PAMPA-BBB", "test system": "porcine brain lipid", "setting": "500 µM, 4 h, pH 7.4, 1% DMSO", "quantity": "Papp", "result": "10.9 ×10⁻⁶ cm/s"}
{"SMILES": "Cc1ccc(OCCN(C)C)cc1C(=O)N[C@H](C)c1cc(-c2cnn(C(C)C)c2)nc2ccccc12", "target or system": "Vero E6", "setting": "125 µM", "quantity": "viability", "result": "2.57% and -0.395%"}
{"SMILES": "NC[C@]1(CC(=O)O)CC[C@H]([18F])CC1", "test": "PET", "test system": "rhesus monkey, brain", "setting": "intravenous, baseline scan", "quantity": "time to peak brain uptake", "result": "~3.8 min"}
{"SMILES": "O=C1CC[C@@]2(O)[C@H]3Cc4ccc(O)c5c4[C@@]2(CCN3CC2CCC2)[C@H]1O5", "test system": "octanol/buffer", "setting": "1 h, pH 7.4", "quantity": "logD", "result": 1.24}
{"SMILES": "CC(=O)NCCCC[C@@H]1NC(=O)[C@H](Cc2c[nH]c3c(C)cccc23)NC(=O)[C@H]([C@@H](C)O)NC(=O)[C@H](CC(N)=O)NC(=O)[C@@H](NC(C)=O)C(C)(C)SSC(C)(C)[C@@H](C(=O)N[C@@H](Cc2ccc(OCCN)cc2)C(=O)N[C@@H](Cc2ccc3ccccc3c2)C(=O)NC2(C(=O)N[C@@H](CCC(=O)O)C(=O)N[C@@H](CC(N)=O)C(=O)N[C@@H](Cc3cccnc3)C(=O)N(C)CC(N)=O)CCOCC2)NC1=O", "target or system": "Solute carrier family 22 member 6 (SLC22A6, Homo sapiens, UniProt Q4U2R8)", "test": "substrate", "test system": "HEK293 expressing SLC22A6", "setting": "5 µM, 30 min", "quantity": "uptake rate", "result": "0.186 ± 0.013 pmol/mg/min"}
{"SMILES": "Cc1nc2cccc(OCC(C)(C)C(=O)NC(C)C)c2c(N)c1C(=O)[O-].[Na+]", "target or system": "Salmonella typhimurium", "test system": "TA1537", "setting": "0.80 mg per plate, without S9, preincubation", "quantity": "revertant colonies per plate", "result": "13 ± 3"}
{"SMILES": "Cc1ccc(N2CC(N(C)C)C2)cc1C(=O)N[C@H](C)c1cc(-c2cnn(C)c2)nc2ccccc12", "target or system": "Vero E6", "setting": "7.812 µM", "quantity": "viability", "result": "96.9% and 95.8% and 98.1%"}
{"SMILES": "O=C(O)c1cn2c(c(O)c1=O)C(=O)N(Cc1ccc(F)cc1F)C[C@@H]2C(c1ccccc1)c1ccccc1", "test system": "dog cells", "quantity": "CC50", "result": "> 10 µM"}
{"SMILES": "COc1ccc2c3c1O[C@H]1[C@H](O)CC[C@@]4(O)[C@@H](C2)N(C)CC[C@]314", "test": "pH-potentiometric titration", "scale": "reference: O-methyl derivative", "quantity": "Δlog K, 14-hydroxylation effect", "result": "0.66 log units"}
{"note": "Repeated from above:"}
{"SMILES": "O=C(O)c1cn2c(c(O)c1=O)C(=O)N(Cc1ccc(F)cc1F)C[C@@H]2C(c1ccccc1)c1ccccc1", "test system": "dog cells", "quantity": "CC50", "result": "> 10 µM"}
